Measured values gathered from unrelated publications.
Protocols differ between the studies behind these lines.
CAMKK1: Calcium/calmodulin-dependent protein kinase kinase 1 (CAMKK1, Homo sapiens, UniProt Q8N5S9)

| Structure (SMILES) | target or system | test | system | setting | how to read | measurement | result |
| --- | --- | --- | --- | --- | --- | --- | --- |
| O=C(NN(c1ccccc1)c1ccccc1)c1ccc([N+](=O)[O-])o1 | Trypanosoma cruzi | reporter mRNA translation, inhibitor, item: capped polyadenylated Renilla luciferase mRNA | cell-free extract | concentration not given | reference: control RNA | relative translation | 103% |
| C=CC(=O)Nc1cc(-c2nn(C3CCN(CCNC(=O)[C@H](C)CCC45CC6CC(CC(C6)C4)C5)CC3)c3ncnc(N)c23)ccc1Oc1ccccc1 | CAMKK1 | inhibitor, KiNativ profiling | biochemical | 2 µM |  | inhibition | 13.8% |
| O=C(Cc1ccc(OCc2ccccc2)cc1)NC1(C(=O)O)CCN(C(=O)c2ccc(-c3cccc(Cl)c3)cc2)CC1 | CAMKK1 | enzyme activity, inhibitor |  | 10 µM |  | activity vs control | 103% |
| Cc1cnc2nc1Nc1cccc(c1)COC/C=C/COCc1cc(ccc1OCCN1CCOCC1)N2 | CAMKK1 | binding |  | 0.1 µM |  | remaining binding | 100% |
| CS(=O)(=O)Nc1cccc(-c2csc3cnc(Nc4ccc(N5CCN(CCCCCOc6cccc7c6C(=O)N(C6CCC(=O)NC6=O)C7=O)CC5)cc4)nc23)c1 (centres unmarked) | CAMKK1 | probe labelling, inhibitor, KiNativ chemoproteomics | MOLT-4 | 1 µM |  | inhibition | -0.586% |
| CNC(=O)C[C@H](Cc1ccc(C#N)cc1)NC(=O)c1cc(-c2ccc(CN[C@H](C)c3ccc(C)cc3)o2)ccc1Cl | CAMKK1 | enzyme activity, inhibitor |  | 1 µM |  | activity vs control | 106% |
| CN1CCC(OC(=O)c2ccc(Br)cc2)CC1.Cl | Trypanosoma cruzi | reporter mRNA translation, inhibitor, item: capped polyadenylated Renilla luciferase mRNA | cell-free extract | concentration not given | reference: control RNA | relative translation | 104% |
| CN1CC[C@@H](COc2cnc(C#N)cc2-c2ccn3nc(NC(=O)C4CC4)cc3c2)C1 | CAMKK1 | enzyme activity, inhibitor |  | 1 µM |  | inhibition | 1% |
| CN1CCN(Cc2ccc(-c3ccc(CO[C@H]4CCC[C@@H]4NC(=O)c4cc(-c5cnn(C)c5)cnc4N)cc3)cc2)CC1 | CAMKK1 | enzyme activity, inhibitor |  | 0.1 µM |  | inhibition | 21% |
| COc1cc(Nc2nccc(-c3cnn4nc(OC)ccc34)n2)cc(C(F)(F)F)c1 | CAMKK1 | binding, competition with immobilised ligand |  | 1 µM |  | remaining binding | 100% |
| NC(=O)[C@@H](O)C[C@H]1CCc2sc3ncnc(O[C@H]4CC[C@H](N5CCOCC5)CC4)c3c21 | CAMKK1 | enzyme activity, inhibitor |  | 10 µM |  | inhibition | 7% |
| C=CC(=O)N1Cc2nc(-c3cc(-c4cc(Cl)cnc4Cl)c(F)cc3F)n(-c3ccncn3)c2C1 | CAMKK1 | cell-free assay, inhibitor |  | 1 µM |  | inhibition | -6.3% |
| COc1c(Cl)cccc1Nc1c(-c2ccncc2C#C[C@@]2(C)CCCN2C(=O)/C=C/CN(C)C)[nH]c2c1C(=O)NCC2 | CAMKK1 | binding, competition with immobilised ligand |  | 3 µM |  | remaining binding | 100% |
| C=CC(=O)N1CCc2ccc(-n3c(=O)ccc4cnc5ccc(-c6cnn(C)c6)cc5c43)cc21 | CAMKK1 | KINOMEscan |  | 1 µM | reference: DMSO control | remaining binding | 93% |

For quick reference, copied from above:
| Structure (SMILES) | target or system | test | system | setting | how to read | measurement | result |
| --- | --- | --- | --- | --- | --- | --- | --- |
| COc1c(Cl)cccc1Nc1c(-c2ccncc2C#C[C@@]2(C)CCCN2C(=O)/C=C/CN(C)C)[nH]c2c1C(=O)NCC2 | CAMKK1 | binding, competition with immobilised ligand |  | 3 µM |  | remaining binding | 100% |
| C=CC(=O)N1CCc2ccc(-n3c(=O)ccc4cnc5ccc(-c6cnn(C)c6)cc5c43)cc21 | CAMKK1 | KINOMEscan |  | 1 µM | reference: DMSO control | remaining binding | 93% |
